Published values gathered from unrelated publications.
Protocols differ between the studies behind these lines.
Sequence of UniProt Q8NE63 (whole entry, looked up): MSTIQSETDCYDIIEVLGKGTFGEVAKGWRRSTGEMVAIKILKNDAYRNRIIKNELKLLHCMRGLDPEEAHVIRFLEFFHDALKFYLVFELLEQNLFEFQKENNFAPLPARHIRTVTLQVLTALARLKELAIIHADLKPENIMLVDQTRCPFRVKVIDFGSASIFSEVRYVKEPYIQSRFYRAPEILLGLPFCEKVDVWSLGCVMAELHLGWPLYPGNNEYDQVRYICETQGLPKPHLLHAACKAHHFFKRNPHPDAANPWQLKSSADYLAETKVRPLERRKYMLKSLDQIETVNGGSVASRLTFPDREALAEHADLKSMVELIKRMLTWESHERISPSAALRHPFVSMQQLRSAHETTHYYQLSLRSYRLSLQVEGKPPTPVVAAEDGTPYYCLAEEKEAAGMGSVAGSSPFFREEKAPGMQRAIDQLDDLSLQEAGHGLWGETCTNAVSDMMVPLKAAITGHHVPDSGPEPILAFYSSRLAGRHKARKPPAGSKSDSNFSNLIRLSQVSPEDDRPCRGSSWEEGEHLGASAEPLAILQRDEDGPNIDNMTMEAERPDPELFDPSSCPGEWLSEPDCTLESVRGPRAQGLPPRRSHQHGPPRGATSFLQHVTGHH

Compound	target or system	assay	system	conditions	how to read	measurement	value
O=CCNCCOn1c(=O)n(OCCNCCO)c(=O)n(OCCNCCOn2c(=O)n(OCCNCCO)c(=O)n(OCCNCCO)c2=O)c1=O	Staphylococcus epidermidis	microbial growth, broth dilution				MIC	1 µg/mL
CCOc1c(NC(=O)c2ccc(NC(=O)c3ccc(NC(=O)[C@H](Cc4c[nH]nn4)NC(=O)c4ccc(NC(=O)/C(C)=C/c5ccc(O)cc5)cc4)cc3)c(OCC)c2O)ccc(C(=O)O)c1O	Enterococcus faecium	broth microdilution	ciprofloxacin-resistant			MIC	32 µg/mL
CCCCCCCCCCCCCCCCCCn1cc(CN(CCC(=O)NCCN(CCC(=O)NCCN(CCC(=O)NCCN(C)C)CCC(=O)NCCN(C)C)CCC(=O)NCCN(CCC(=O)NCCN(C)C)CCC(=O)NCCN(C)C)CCC(=O)NCCN(CCC(=O)NCCN(CCC(=O)NCCN(C)C)CCC(=O)NCCN(C)C)CCC(=O)NCCN(CCC(=O)NCCN(C)C)CCC(=O)NCCN(C)C)nn1	Salmonella enterica	microbial growth, broth dilution	ATCC13076 ENTERITIDIS	18 h		MIC	6 µg/mL
COCOC[C@H]1O[C@H](O[C@H]2[C@H](O[C@@H]3O[C@H](CO)[C@@H](O[C@H]4O[C@@H](CN)[C@@H](O)[C@H](O)[C@H]4N)[C@H]3O)[C@@H](O)[C@H](N)C[C@@H]2N)[C@H](N)[C@@H](O)[C@@H]1O	Mycolicibacterium smegmatis	microbial growth, broth dilution		72 h		MIC	128 µg/mL
C=CC(=O)Nc1cccc(Cn2ncc3cnc(Nc4cnn(CCOC)c4)nc32)c1	PRKD3 human	binding, KINOMEscan		100 nM	lower = stronger binding	percent of control	100%
COc1cccc(OC)c1C(=O)N[C@@H]1C(=O)N2[C@@H]1SC(C)(C)[C@@H]2C(=O)O	Staphylococcus epidermidis	microbial growth, broth dilution	12228			MIC	4 µM
CO[C@H]1[C@H](O)[C@@H](N)[C@@H](O[C@H]2[C@H](O[C@@H]3O[C@H](CO)[C@@H](O[C@H]4O[C@@H](CN)[C@@H](O)[C@H](O)[C@H]4N)[C@H]3O)[C@@H](O)[C@H](N)C[C@@H]2N)O[C@@H]1CO	Mycolicibacterium smegmatis	microbial growth, broth dilution		72 h		MIC	16 to 32 µg/mL
CC1(C)[C@H](NC(=O)/C(=N\OCCN)c2csc(N)n2)C(=O)N1OS(=O)(=O)O	Enterobacter cloacae	agar dilution	ATCC 43560, susceptible			MIC	1 µg/mL
CN[C@H](CC(C)C)C(=O)N[C@H]1C(=O)N[C@@H](CC(N)=O)C(=O)N[C@H]2C(=O)N[C@H]3C(=O)N[C@H](C(=O)N[C@H](C(=O)O)c4cc(O)cc(O)c4-c4cc3ccc4O)[C@H](O)c3ccc(c(Cl)c3)Oc3cc2cc(c3O[C@@H]2O[C@H](CO)[C@@H](O)[C@H](O)[C@H]2O[C@H]2C[C@](C)(NCc3ccc(-c4ccc(Cl)cc4)cc3)[C@H](O)[C@H](C)O2)Oc2ccc(cc2Cl)[C@H]1O	Enterococcus faecium		VanA VRE ATCC BAA-2317	no LTA		MIC	2.5 µg/mL
COc1c(NC(=O)c2ccc(NC(=O)c3ccc(NC(=O)[C@H](CC#N)NC(=O)c4ccc(NC(=O)/C(C)=C/c5ccc(O)cc5)cc4)cc3)c(OC)c2O)ccc(C(=O)O)c1O	Salmonella enterica	microbial growth, broth dilution				MIC	0.5 µg/mL
Cc1ncsc1-c1ccc(C(C)NC(=O)C2CC(O)CN2C(=O)C(NC(=O)CCCCCCCCCCN2CCCC(Nc3ncc(Cl)c(Nc4ccccc4S(=O)(=O)C(C)C)n3)C2)C(C)(C)C)cc1 (centres unmarked)	22Rv1	RNA-seq, refers to: ZNF189 mRNA		concentration not given	baseline: DMSO	log2 fold change	-1.14
CC[C@H](C)[C@@H]1NC(=O)[C@@H]([C@@H](C)O)NC(=O)CNC(=O)[C@H](CC(=O)O)NC(=O)CNC(=O)[C@H](CC(=O)O)NC(=O)CNC(=O)[C@H]2CCCCN2C(=O)[C@@H](NC(=O)[C@H](CC(=O)O)NC(=O)/C=C/CCCCCCCCCC(C)C)CNC(=O)[C@@H]2CCCN2C1=O	Staphylococcus aureus	broth microdilution	MRSA USA300, Mueller-Hinton broth, Mg2+ 10 mg/L	16 h, 37 °C, together with: Ca2+ 5 mM		MIC	4 µg/mL
CCCCCO[C@H]1[C@H](O)[C@@H](N)[C@@H](O[C@H]2[C@H](O[C@@H]3O[C@H](CO)[C@@H](O[C@H]4O[C@@H](CN)[C@@H](O)[C@H](O)[C@H]4N)[C@H]3O)[C@@H](O)[C@H](N)C[C@@H]2N)O[C@@H]1CO	Mycolicibacterium smegmatis	microbial growth, broth dilution		72 h		MIC	≥ 256 µg/mL
COc1cc(C(=O)Nc2ccc(C(=O)O)c(O)c2)ccc1NC(=O)c1ccc(NC(=O)[C@H](Cc2c[nH]nn2)NC(=O)c2ccc(NC(=O)/C(C)=C/c3ccc(O)cc3)cc2)cc1	Enterococcus faecium	broth microdilution	ciprofloxacin-sensitive			MIC	8 µg/mL
COCOC[C@H]1O[C@H](O[C@H]2[C@H](O[C@@H]3O[C@H](CO)[C@@H](O[C@H]4O[C@@H](CN)[C@@H](O)[C@H](O)[C@H]4N)[C@H]3O)[C@@H](O)[C@H](N)C[C@@H]2N)[C@H](N)[C@@H](O)[C@@H]1OCOC	Mycolicibacterium smegmatis	microbial growth, broth dilution		72 h		MIC	> 256 µg/mL
CC1(C)[C@H](NC(=O)/C(=N\OCCN)c2nsc(N)n2)C(=O)N1OS(=O)(=O)O	Enterobacter cloacae	agar dilution	CDC 1000654			MIC	> 64 µg/mL
CO[C@H]1/C=C/O[C@@]2(C)Oc3c(C)c(O)c4c(c3C2=O)C2=NC3(CCN(CC(C)C)CC3)NC2=C(NC(=O)/C(C)=C\C=C\[C@H](C)[C@H](O)[C@@H](C)[C@@H](O)[C@@H](C)[C@H](OC(=O)c2cccnc2)[C@@H]1C)C4=O	Mycobacteroides abscessus		Bamboo clinical isolate	90% growth inhibition		MIC	0.023 µM
CNS(=O)(=O)Nc1nccc(Cc2c(C)c3ccc(Oc4ncccc4F)cc3oc2=O)c1F	KMS-28BM	cell viability		7 days		IC50	> 1 µM
CCCCCCC#Cc1cncc(-c2nnc(SCc3cc([N+](=O)[O-])cc([N+](=O)[O-])c3)n2C)c1	Enterobacter cloacae	microbial growth, broth dilution	DSM30054			MIC	> 64 µg/mL

Compound	target or system	assay	system	conditions	how to read	measurement	value
COC(=O)CNC(=O)c1ccc(NC(=O)c2[nH]c(C)c(Cl)c2Cl)c(N2CCN(C(=O)OC(C)(C)C)CC2)c1	Enterococcus faecium	microbial growth, broth dilution	ATCC35667			MIC	> 32 µg/mL
Nc1ncc(-c2cc(-c3cnn(CC(F)(F)F)c3)ncc2F)nc1C(=O)NC1CNCC(F)C1 (centres unmarked)	p38-delta	KINOMEscan competition binding		1 µM	baseline: DMSO control	remaining binding	98%
COc1c(NC(=O)c2ccc(NC(=O)c3ccc(NC(=O)[C@H](Cc4c[nH]nn4)NC(=O)c4ccc(NC(=O)/C(C)=C/c5ccc(O)cc5)cc4)cc3)cc2)ccc(C(=O)O)c1O	Enterococcus faecium	broth microdilution	ciprofloxacin-sensitive			MIC	16 µg/mL
CC1(C)[C@H](NC(=O)/C(=N\OC2(C(=O)O)CCCCC2)c2csc(N)n2)C(=O)N1OS(=O)(=O)O	Enterobacter cloacae	agar dilution	CDC 1000654			MIC	16 µg/mL
Cc1c(CN(C)C(=O)/C=C/c2cnc3c(c2)CC(N)C(=O)N3)oc2ccccc12 (centres unmarked)	Enterobacter cloacae	microbial growth, broth dilution				MIC	16 µg/mL
COC1CN([C@H]2CC[C@H]([C@@]3(C)Oc4c(Cl)cc(C(=O)NCc5c(SC)cc(C)[nH]c5=O)c(C)c4O3)CC2)C1		RNA-seq, refers to: MAP7 mouse homolog	mouse, HT-1376 xenograft, whole blood	dose not given	baseline: vehicle	log2 fold change	0.771
CC1(C)C(NC(=O)C(=NOCC(=O)N2CC3CCCC3C2C(=O)O)c2csc(N)n2)C(=O)N1OS(=O)(=O)O (centres unmarked)	Enterobacter cloacae	agar dilution	CDC 1000654			MIC	> 64 µg/mL
C=C(NC(=O)c1csc(-c2nc3c(cc2O)-c2nc(cs2)C(=O)NC(C(C)O)C(=O)NC(=C(C)OC)c2nc(cs2)C(=O)NC2c4nc(cs4)C(=O)NC(COC(=O)c4c5c6c(cccc6n4O)COC(=O)C(OC4CC(C)(O)C(N(C)C)C(C)O4)C2OC5)c2nc-3cs2)n1)C(N)=O (centres unmarked)	Enterococcus faecium		-30, vancomycin-intermediate			MIC	0.078 µg/mL
COc1c(NC(=O)c2ccc(NC(=O)c3ccc(NC(=O)[C@H](Cc4c[nH]nn4)NC(=O)c4ccc(NC(=O)/C(C)=C/c5ccc(O)cc5)cc4)cc3)c(OC)c2O)ccc(C(=O)O)c1O	Enterococcus faecium	broth microdilution	ciprofloxacin-sensitive			MIC	0.25 µg/mL
CC[C@H](C)[C@@H]1NC(=O)[C@H](CCC(=O)O)NC(=O)[C@@H]2CSSC[C@@H]3NC(=O)[C@H](Cc4ccc(O)cc4)NC(=O)[C@@H](NC(=O)[C@@H](NC(=O)[C@H](C)N)[C@@H](C)O)CSSC[C@@H](C(=O)N[C@@H](CCCNC(=N)N)C(=O)O)NC(=O)[C@H](CSSC[C@H](NC(=O)[C@H](CCCNC(=N)N)NC(=O)CNC(=O)[C@H]([C@@H](C)O)NC(=O)[C@H](CCCNC(=N)N)NC3=O)C(=O)N[C@@H](C)C(=O)N[C@@H]([C@@H](C)O)C(=O)N[C@@H](CCCNC(=N)N)C(=O)N[C@@H](CCC(=O)O)C(=O)N[C@@H](CO)C(=O)N[C@@H](CC(C)C)C(=O)N[C@@H](CO)C(=O)NCC(=O)N[C@@H](C(C)C)C(=O)N2)NC(=O)[C@H](CC(C)C)NC(=O)[C@H](CCCNC(=N)N)NC(=O)[C@H](Cc2ccc(O)cc2)NC(=O)[C@H](CC(C)C)NC(=O)[C@H](CCCNC(=N)N)NC(=O)CNC(=O)[C@H](CO)NC1=O	Enterococcus faecium	broth turbidity	475747			MIC	11.2 µg/mL
COc1cc(C(=O)Nc2ccc(C(=O)O)c(O)c2OC)ccc1NC(=O)c1ccc(NC(=O)[C@H](Cc2c[nH]nn2)NC(=O)c2ccc(NC(=O)/C(C)=C/c3ccc(O)cc3)cc2)cc1	Enterococcus faecium	broth microdilution	ciprofloxacin-sensitive			MIC	4 µg/mL
CC1(C)C(NC(=O)C(=NOC2(C(=O)O)CC2)c2csc(N)n2)C(=O)N1OS(=O)(=O)O (centres unmarked)	Klebsiella pneumoniae	agar dilution	ATCC 700603, ESBL-producing			MIC	4 µg/mL
C[C@@H]1C(=O)O[C@@H](C)/C=C/C=C\[C@@H](C)[C@@H]2C=C[C@@H]3C[C@@]4(C)O[C@H]4[C@@H](C)[C@H]3[C@@H]2C(=O)C(Cl)(Cl)C1=O	Staphylococcus aureus		MRSA clinical isolate	resistant: OXA,CLI,DOX,ERY,GEN,SXT,TET		MIC	0.1 µg/mL
CC1(C)C(NC(=O)C(=NOC2(C(=O)O)CCC2)c2csc(N)n2)C(=O)N1OS(=O)(=O)O (centres unmarked)	Enterobacter cloacae	agar dilution	ATCC 43560, susceptible			MIC	0.125 µg/mL
COc1nc(C(=O)Nc2ccc(C(=O)O)c(O)c2OC)ccc1NC(=O)c1ccc(NC(=O)[C@H](Cc2c[nH]nn2)NC(=O)c2ccc(NC(=O)/C(C)=C/c3ccc(O)cc3)cc2)cc1	Enterococcus faecium	broth microdilution	ciprofloxacin-sensitive			MIC	0.25 µg/mL
CC1(C)[C@H](NC(=O)/C(=N\OC2(C(=O)O)CC2)c2nsc(N)n2)C(=O)N1OS(=O)(=O)O	Enterobacter cloacae	agar dilution	CDC 1000654			MIC	64 µg/mL
COc1c(NC(=O)c2ccc(NC(=O)[C@H](Cc3c[nH]nn3)NC(=O)c3ccc(NC(=O)/C(C)=C/c4ccc(O)cc4)cc3)cc2)ccc(C(=O)Nc2ccc(C(=O)O)c(O)c2)c1O	Enterococcus faecium	broth microdilution	ciprofloxacin-sensitive			MIC	2 µg/mL
C=CCO/N=C(\C(=O)N[C@@H]1C(=O)N(OS(=O)(=O)O)C1(C)C)c1csc(N)n1	Enterobacter cloacae	agar dilution	ATCC 43560, susceptible			MIC	0.25 µg/mL
Cc1nn(-c2cccc(N)c2)c(=O)c2cnc(Nc3ccc(N4CCNCC4)cc3)nc12	HIPK4 (Homo sapiens, UniProt Q8NE63)	enzyme activity, inhibitor				IC50	> 10 µM

Excerpt of the above:
Compound	target or system	assay	system	conditions	how to read	measurement	value
CC1(C)[C@H](NC(=O)/C(=N\OC2(C(=O)O)CC2)c2nsc(N)n2)C(=O)N1OS(=O)(=O)O	Enterobacter cloacae	agar dilution	CDC 1000654			MIC	64 µg/mL
COc1c(NC(=O)c2ccc(NC(=O)[C@H](Cc3c[nH]nn3)NC(=O)c3ccc(NC(=O)/C(C)=C/c4ccc(O)cc4)cc3)cc2)ccc(C(=O)Nc2ccc(C(=O)O)c(O)c2)c1O	Enterococcus faecium	broth microdilution	ciprofloxacin-sensitive			MIC	2 µg/mL
